Published values of several laboratories.
“And” joins repeats or separate records; there may be more than shown. Numbers after ± are the reported error.
Cell line: A549

`Cc1ccc(C(C)C)cc1.[Cl-].[Cl-].[Ru+2].c1ccc(P(=Nc2cccc3cccnc23)(c2ccccc2)c2ccccc2)cc1` gave an IC50 of 43.3 µM (cell growth or viability, MTT; 24 h).
`CC(C)=CCc1c2c(c(O)c3c(=O)c(-c4ccc(O)cc4)coc13)CC(C(C)(C)O)O2` (stereo not shown) gave an IC50 of 40.3 µM (cell growth or viability, MTT).
With `Cc1cc(C=O)cc(C)c1Oc1cc(Nc2ccc(C#N)cc2)nc2cnccc12` the IC50 was over 127 µM (48 h).
For `S=c1n(-c2ccccc2)c2c3ccccc3nc3[n+]2[n]1[Ir-3]12([S]3)([c]3ccc4ccccc4c3-c3sc4ccccc4[n+]31)[c]1ccc3ccccc3c1-c1sc3ccccc3[n+]12`, the IC50 was over 25 µM (cell viability, MTT; dark).
`COc1ccc(C=C2SC(N3N=C(c4cccs4)CC3c3ccc(F)cc3)=NC2=O)cc1` (stereo not shown) gave an IC50 of 6.53 µM (cell growth or viability, MTT).
For `N=C(N)Nc1nc2ccccc2[nH]1`, the IC50 was over 200 µM (cell growth or viability, MTT; 24 h).
`CC(C)c1cccc(C(C)C)c1[N+]#[C][Pd-2]([Cl])([Cl])[C]#[N+]c1c(C(C)C)cccc1C(C)C` gave an IC50 of over 100 µM (cell growth or viability).
For `CCN1CCC2(CC1)C/C(=N\NC(=O)Nc1ccc([N+](=O)[O-])cc1)c1ccccc1O2`, the IC50 was 21.7 µM (cell growth or viability, MTT; 48 h).
For `CC(C)=CCC1=C([O-])C(=O)c2ccccc2C1=O.O=[N+]([O-])[O-].[Cu+2].c1ccc(-c2cccc(-c3ccccn3)n2)nc1`, the IC50 was over 50 µM (cell viability, MTT; 24 h).
`COc1c(O)c(Br)c2oc3c(Br)c(O)c(CCC(C)C)c(O)c3c(=O)c2c1CCC(C)C` has an IC50 of 12 µM (cell growth or viability; 48 h).
`C=C1C(=O)[C@@]23CC[C@@H]4[C@](C)(COC(C)=O)CCC[C@@]4(COC(C)=O)[C@@H]2[C@@H](O)C[C@@H]1C3` has an IC50 of over 20 µM (cell growth or viability, MTT).
`C[O][Pt-2]1([Cl])([Cl])([O]C(=O)CCC(=O)OCCO)[NH2+]CC[N+]1(C)C` gave an IC50 of 120 µM (cell growth or viability, MTT; 96 h).
`Cc1cc(C)c([N+]#[C][Pt-]([Cl])([Cl])=[C](Nc2cccc(CN[C](Nc3c(C)cc(C)cc3C)=[Au][Cl])c2)Nc2c(C)cc(C)cc2C)c(C)c1` has an IC50 of over 100 µM (cell growth or viability).
The IC50 of `Cc1cc(C=O)cc(C)c1Oc1cc(Nc2ccc(C#N)cc2)nc2ccncc12` is reported as 45.9 ± 5.5 µM (48 h).
For `C=C(C)[C@@H]1CC[C@]2(C(=O)O)CC[C@]3(C)[C@H](CC[C@@H]4[C@@]5(C)CC[C@H](O[C@@H]6O[C@@H](C)[C@H](OC)[C@@H](O)[C@H]6O)C(C)(C)[C@@H]5CC[C@]43C)[C@@H]12`, the IC50 was 2.5 µM (cell growth or viability, fluorescence; 48 h).
`Oc1cccc2[nH]c(/C(=N/OCc3ccccc3)c3cc4cccc(O)c4o3)nc12` gave an IC50 of 32.8 µM (cell growth or viability, ATP luminescence; 72 h).
`COC(C)(C)/C=C/C[C@@](C)(O)[C@H]1CC[C@]2(C)[C@@H]1CC[C@@H]1[C@@]3(C)CCC(=O)C(C)(C)[C@@H]3CC[C@]12C` has an IC50 of 31.1 µM (cell growth or viability, SRB).
For `O=C1Nc2ccccc2/C1=N/c1ccccc1C(=O)Nc1ccccc1`, the IC50 was 23.8 µM (cell growth or viability, MTT; 24 h).
The IC50 of `COc1c(O)cc2oc3cc4c(c(O)c3c(=O)c2c1CCC(C)(C)O)CCC(C)(C)O4` is reported as over 40 µM (cell growth or viability; 48 h).
`NC1CCCCC1N.O=C(CCCc1ccccc1)[O][Pt]1([O]C(=O)CCCc2ccccc2)[O]C(=O)C(=O)[O]1` gave an IC50 of 19.6 µM (cell growth or viability).
For `O=C1/C(=C/c2ccc3c(c2)OCCO3)SC(=S)N1[C@@H]1O[C@H](CO)[C@@H](O)[C@H](O)[C@H]1O`, the IC50 was 4.5 µM (cell growth or viability, MTT; 48 h).
`CC(=O)O[C@@H]1CC[C@@]2(C)[C@@H](CC[C@]3(C)[C@@H]2C(=O)C=C2[C@@H]4[C@@H](C)[C@H](C)CC[C@]4(C)CC[C@]23C)[C@@]1(C)C(=O)O` gave an IC50 of 27 µM (cell growth or viability, MTT; 48 h).
`COc1c(C)c(OC(=O)c2ccccc2)c(C)c(OC(=O)c2ccccc2)c1C(=O)/C=C/c1ccccc1` has an IC50 of 30.9 µM (cell growth or viability, SRB; 72 h).
With `CC(=O)[C@@H]1CCCN1C(=O)[C@@H]1CCCN1C(=O)[C@H](Cc1ccccc1)NC(=O)OC(C)(C)C` the IC50 was 5 µM (cell growth or viability, SRB).
The IC50 of `CC1=C(Cn2c3ccc(Br)c(=O)c-3nc3ccccc32)CCC(C)(C)C1` is reported as 0.73 µM (cell growth or viability, CCK-8; 72 h).
`N#Cc1cccc(-c2ccc(=O)n(Cc3cccc(-c4ncc(OCC5CCN(CC(=O)NCCOCCNc6ccc7c(c6)C(=O)N(C6CCC(=O)NC6=O)C7=O)CC5)cn4)c3)n2)c1` (stereo not shown) gave an IC50 of 0.511 µM (cell growth or viability, CCK-8; 72 h).
`CN1CCCC1CCO/N=C1/C=C2CCC3C(CC[C@]4(C)/C(=C/c5ccccn5)CCC34)[C@@]2(C)CC1` (stereo partly shown) gave an IC50 of over 100 µM (cell growth or viability, MTT; 72 h).
For `C=CC(=O)Nc1cc(Nc2nccc(-c3c(-c4ccc5ccccc5c4)n(C)c4ccccc34)n2)c(OC)cc1N(C)CCN(C)C`, the IC50 was 0.652 µM (cell growth or viability, MTT; 72 h).
`COc1cc(/C=C/c2cc(C)n[nH]2)ccc1O` gave an IC50 of over 100 µM (cell growth or viability, MTT; 48 h).
For `CCCCCCC(=O)NCCNC(=O)[C@]1(C)[C@@H]2CC[C@]3(C)[C@H](C(=O)C=C4[C@@H]5[C@@H](C)[C@H](C)CC[C@]5(C)CC[C@]43C)[C@@]2(C)CC[C@H]1OC(C)=O`, the IC50 was 16.4 µM (cell growth or viability, MTT; 48 h).
With `COc1ccc(/C=C/C2=[N+]3C(=C(CO)c4c(C)cc(/C=C/c5ccc(OC)cc5)n4[B-]3(F)F)C(C)=C2)cc1` the IC50 was over 100 µM (cell growth or viability, resazurin; dark).
`[Cl-].[Cl-].[Ru+2].c1ccc2nc(-c3ccc4ccccc4n3)ccc2c1.c1ccc2nc(-c3ccc4ccccc4n3)ccc2c1.c1cnc2c(c1)ccc1cccnc12` gave an IC50 of 9.2 µM (resazurin; 72 h, together with: indigo light 450 nm, 29.1 J/cm2).
For `CC(=O)[O-].O.O.O.O.[Mn+2].[O-]c1ccc(Br)cc1C=NCCN1CCOCC1`, the IC50 was 26.2 µg/mL (cell viability, MTT; 72 h).
With `CN(C)c1cc[n+](Cc2cccc(C[n+]3ccc(N(C)C)cc3)c2)cc1` the IC50 was 757 µM (cell growth or viability, MTT; 24 h).
`COCC12CN(C)C3C4C(OC)C1C3(C(OC)CC2O)C1(O)CC2(O)C(OC)C(O)C4(O)C1C2OC(=O)c1ccccc1` (stereo not shown) gave an IC50 of 17.1 µM (cell growth or viability, MTT).
The IC50 of `C=CC(=O)Nc1cc(Nc2nccc(-c3c(-c4ccc(Cl)cc4)n(C)c4ccccc34)n2)c(OC)cc1N(C)CCN(C)C` is reported as 0.415 µM (cell growth or viability, MTT; 72 h).
The IC50 of `[Cl-].[Cl-].[Ru+2].c1ccc(-c2ccccn2)nc1.c1ccc(-c2ccccn2)nc1.c1ccc(-c2ccnc3c2ccc2c(-c4ccccc4)ccnc23)cc1` is reported as 66 µM and 66.4 µM (cell growth or viability; 72 h, dark).
For `Cc1cc(C)c([N+]#[C][Pd-]([Cl])([Cl])=[C](Nc2cccc(CN[C](Nc3c(C(C)C)cccc3C(C)C)=[Au][Cl])c2)Nc2c(C)cc(C)cc2C)c(C)c1`, the IC50 was 30 µM (cell growth or viability).
`Oc1ccccc1-n1nc(-c2ccccc2)n[n+]1-c1ccccc1` has an IC50 of 320 ± 20 µM (cell growth, resazurin).
The IC50 of `CC1=CC(C)=[N+]2C1=C(CO)c1c(C)cc(C)n1[B-]2(C)C` is reported as over 100 µM (cell growth or viability, resazurin; dark).
`O=C(Cc1ccccc1)NC(=S)n1c(-c2ccccc2)nc2ccccc21` has an IC50 of 15.6 µM (cell growth or viability, MTT; 48 h).
For `CC(=O)O[C@@H]1CC[C@@]2(C)[C@@H](CC[C@]3(C)[C@@H]2C(=O)C=C2[C@@H]4[C@@H](C)[C@H](C)CC[C@]4(C)CC[C@]23C)[C@@]1(C)C(=O)NCCNC(=O)CCBr`, the IC50 was 26.8 µM (cell growth or viability, MTT; 48 h).
`COc1ccc(/N=N/C(=S)N2CCCCC2)cc1` has an IC50 of over 50 µM (cell growth or viability, resazurin; 48 h).
With `Cl.[Cl][Ru-]1[S+]=C(NC2CCCCC2)N[N+]1=Cc1ccc(N(c2ccc(-c3ccsc3)cc2)c2ccc(-c3ccsc3)cc2)cc1.c1ccccc1` the IC50 was over 100 µM (cytotoxicity, MTT; 24 h).
For `O=C1c2ccc3c4ccc5c6c(ccc(c7ccc(c2c37)C(=O)N1CCN1CCCCC1)c64)C(=O)N(CCN1CCCCC1)C5=O`, the IC50 was 52.5 µM (cell growth or viability, SRB; 72 h).
`CC(C)c1cccc(C(C)C)c1[N+]#[C][Pd-]([Cl])([Cl])=[C](Nc1cccc(CN[C](NC(C)(C)C)=[Au][Cl])c1)Nc1c(C(C)C)cccc1C(C)C` has an IC50 of over 100 µM (cell growth or viability).
`COc1ccc(CN2C[C@H](O)[C@H](O)[C@@H]2CO)cc1` gave an IC50 of over 200 µM (cell growth or viability, MTS; 72 h).
`CCCCCCCCSc1nc(N)c2c(F)c(C#N)c(F)c(Cl)c2n1` has an IC50 of over 100 µM (cell growth or viability, MTT; 96 h).
With `Cc1ccc(C2C([N+](=O)[O-])C(Cc3ccc(O)cc3)NC23C(=O)c2cccc4cccc3c24)cc1` (stereo not shown) the IC50 was 53 µM (cell growth or viability, MTT; 24 h).
For `COc1ccc(C2=NN(C3=NC(=O)/C(=C/c4ccccc4)S3)C(c3ccc(F)cc3)C2)cc1` (stereo not shown), the IC50 was over 100 µM (cell growth or viability, MTT).
For `COc1cc(C(=O)c2[nH]c(N)nc2-c2ccc(Cl)cc2)cc(OC)c1OC`, the IC50 was 0.725 µM (cell growth or viability, SRB; 24 h).
`Cc1c(C)c(C)[c-](C)c1C.O=Cc1ccc(-c2[c-]cccc2)nc1.[Cl-].[Ir+3]` gave an IC50 of 5.9 ± 0.1 µM (SRB; 24 h, 72 h recovery).
The IC50 of `COCCSc1nc(N)c2c(F)c(C#N)c(F)c(Cl)c2n1` is reported as 7.48 µM (cell growth or viability, MTT; 96 h).
The IC50 of `CCOC(=O)c1ccc2c(c1)n(CC)[c]([Au-][Cl])[n+]2CC` is reported as 11.6 µM (cell growth or viability, crystal violet; 72 h).
For `Cc1ccc(C(C)C)cc1.Cc1ncc(CO)c(C=NNC2=Nc3ccccc3-c3[nH]c4ccc(Br)cc4c3C2)c1O.[Cl-].[Cl][Ru+]`, the IC50 was 6 µM (cell growth or viability, MTT; 96 h).
